Experimental data pooled from the literature.
Parts stem from different laboratories: compare values within a part only.
UniProt Q00534, sequence (whole entry, looked up): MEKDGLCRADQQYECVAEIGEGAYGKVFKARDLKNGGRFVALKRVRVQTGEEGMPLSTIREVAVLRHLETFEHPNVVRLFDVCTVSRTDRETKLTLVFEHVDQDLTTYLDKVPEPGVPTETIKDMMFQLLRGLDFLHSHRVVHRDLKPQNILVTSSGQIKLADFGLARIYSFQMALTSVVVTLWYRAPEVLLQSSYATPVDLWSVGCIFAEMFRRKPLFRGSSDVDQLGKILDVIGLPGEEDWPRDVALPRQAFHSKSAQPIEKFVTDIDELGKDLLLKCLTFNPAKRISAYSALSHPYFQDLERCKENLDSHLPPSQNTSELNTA
UniProt P00519, sequence (whole entry, looked up): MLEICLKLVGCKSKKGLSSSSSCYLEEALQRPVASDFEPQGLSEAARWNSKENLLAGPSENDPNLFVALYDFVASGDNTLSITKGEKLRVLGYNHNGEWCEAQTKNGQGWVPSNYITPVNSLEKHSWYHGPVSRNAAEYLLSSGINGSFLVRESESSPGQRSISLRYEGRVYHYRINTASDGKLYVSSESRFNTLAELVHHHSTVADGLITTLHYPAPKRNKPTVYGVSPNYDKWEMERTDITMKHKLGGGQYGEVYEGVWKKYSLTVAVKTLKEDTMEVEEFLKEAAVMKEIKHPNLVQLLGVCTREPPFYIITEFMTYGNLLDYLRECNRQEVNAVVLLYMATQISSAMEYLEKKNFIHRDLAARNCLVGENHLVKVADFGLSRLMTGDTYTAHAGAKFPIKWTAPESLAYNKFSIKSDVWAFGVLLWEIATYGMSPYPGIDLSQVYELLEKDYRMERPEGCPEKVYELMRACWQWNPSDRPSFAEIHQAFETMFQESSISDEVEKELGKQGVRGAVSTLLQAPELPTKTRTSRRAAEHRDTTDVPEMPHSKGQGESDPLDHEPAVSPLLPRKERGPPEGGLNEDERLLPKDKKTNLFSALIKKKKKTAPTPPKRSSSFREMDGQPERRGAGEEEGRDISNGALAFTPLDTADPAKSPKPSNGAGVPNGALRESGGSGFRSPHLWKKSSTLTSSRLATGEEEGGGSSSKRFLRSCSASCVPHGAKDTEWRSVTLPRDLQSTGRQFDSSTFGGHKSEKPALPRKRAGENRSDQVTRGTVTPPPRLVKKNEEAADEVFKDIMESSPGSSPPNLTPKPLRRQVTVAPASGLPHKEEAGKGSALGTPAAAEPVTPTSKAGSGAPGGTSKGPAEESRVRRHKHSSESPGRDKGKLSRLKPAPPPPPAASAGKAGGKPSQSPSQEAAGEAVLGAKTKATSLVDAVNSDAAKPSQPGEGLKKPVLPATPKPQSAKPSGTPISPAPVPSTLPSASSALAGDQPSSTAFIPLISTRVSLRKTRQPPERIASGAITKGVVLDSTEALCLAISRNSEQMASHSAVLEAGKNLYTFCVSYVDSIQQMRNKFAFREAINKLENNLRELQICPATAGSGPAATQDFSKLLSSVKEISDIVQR
UniProt O75716, sequence (whole entry, looked up): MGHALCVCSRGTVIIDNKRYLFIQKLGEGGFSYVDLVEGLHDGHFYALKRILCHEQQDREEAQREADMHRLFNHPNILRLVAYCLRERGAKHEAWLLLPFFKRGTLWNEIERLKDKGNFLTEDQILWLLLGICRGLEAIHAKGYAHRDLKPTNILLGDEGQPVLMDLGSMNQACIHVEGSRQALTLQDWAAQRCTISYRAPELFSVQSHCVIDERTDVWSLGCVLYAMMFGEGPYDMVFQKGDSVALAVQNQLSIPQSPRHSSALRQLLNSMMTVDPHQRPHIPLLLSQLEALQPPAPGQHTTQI
UniProt O75914, sequence (whole entry, looked up): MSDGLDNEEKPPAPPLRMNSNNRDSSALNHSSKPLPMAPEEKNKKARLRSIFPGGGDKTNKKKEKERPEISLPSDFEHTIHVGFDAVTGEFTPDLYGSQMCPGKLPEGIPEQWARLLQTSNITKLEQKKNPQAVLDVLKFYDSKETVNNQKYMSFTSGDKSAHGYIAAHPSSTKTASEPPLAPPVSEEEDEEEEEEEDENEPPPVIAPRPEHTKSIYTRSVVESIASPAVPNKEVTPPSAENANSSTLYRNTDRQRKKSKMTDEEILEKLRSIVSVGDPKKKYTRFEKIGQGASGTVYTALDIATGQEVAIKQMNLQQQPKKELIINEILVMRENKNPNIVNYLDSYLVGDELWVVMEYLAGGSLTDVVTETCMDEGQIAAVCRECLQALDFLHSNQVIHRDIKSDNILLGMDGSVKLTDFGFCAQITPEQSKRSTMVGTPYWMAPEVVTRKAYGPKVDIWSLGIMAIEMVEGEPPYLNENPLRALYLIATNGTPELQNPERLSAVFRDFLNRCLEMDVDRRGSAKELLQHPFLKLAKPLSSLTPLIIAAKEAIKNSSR
UniProt Q9H093, sequence (whole entry, looked up): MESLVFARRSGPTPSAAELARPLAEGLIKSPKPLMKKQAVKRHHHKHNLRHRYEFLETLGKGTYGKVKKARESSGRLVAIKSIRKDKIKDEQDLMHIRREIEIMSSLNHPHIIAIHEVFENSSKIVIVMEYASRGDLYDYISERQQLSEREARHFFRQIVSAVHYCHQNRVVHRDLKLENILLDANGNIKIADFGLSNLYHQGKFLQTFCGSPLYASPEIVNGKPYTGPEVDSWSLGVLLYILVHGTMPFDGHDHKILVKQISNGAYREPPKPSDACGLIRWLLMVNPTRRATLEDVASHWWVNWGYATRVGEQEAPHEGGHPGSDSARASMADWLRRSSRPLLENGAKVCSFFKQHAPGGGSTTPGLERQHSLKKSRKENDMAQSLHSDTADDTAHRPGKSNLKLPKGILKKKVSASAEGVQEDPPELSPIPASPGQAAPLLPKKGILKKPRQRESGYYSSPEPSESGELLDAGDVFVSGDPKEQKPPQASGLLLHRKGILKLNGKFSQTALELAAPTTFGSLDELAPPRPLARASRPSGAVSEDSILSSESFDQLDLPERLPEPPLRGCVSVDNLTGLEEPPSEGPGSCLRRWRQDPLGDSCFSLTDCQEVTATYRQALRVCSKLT
UniProt O75582, sequence (whole entry, looked up): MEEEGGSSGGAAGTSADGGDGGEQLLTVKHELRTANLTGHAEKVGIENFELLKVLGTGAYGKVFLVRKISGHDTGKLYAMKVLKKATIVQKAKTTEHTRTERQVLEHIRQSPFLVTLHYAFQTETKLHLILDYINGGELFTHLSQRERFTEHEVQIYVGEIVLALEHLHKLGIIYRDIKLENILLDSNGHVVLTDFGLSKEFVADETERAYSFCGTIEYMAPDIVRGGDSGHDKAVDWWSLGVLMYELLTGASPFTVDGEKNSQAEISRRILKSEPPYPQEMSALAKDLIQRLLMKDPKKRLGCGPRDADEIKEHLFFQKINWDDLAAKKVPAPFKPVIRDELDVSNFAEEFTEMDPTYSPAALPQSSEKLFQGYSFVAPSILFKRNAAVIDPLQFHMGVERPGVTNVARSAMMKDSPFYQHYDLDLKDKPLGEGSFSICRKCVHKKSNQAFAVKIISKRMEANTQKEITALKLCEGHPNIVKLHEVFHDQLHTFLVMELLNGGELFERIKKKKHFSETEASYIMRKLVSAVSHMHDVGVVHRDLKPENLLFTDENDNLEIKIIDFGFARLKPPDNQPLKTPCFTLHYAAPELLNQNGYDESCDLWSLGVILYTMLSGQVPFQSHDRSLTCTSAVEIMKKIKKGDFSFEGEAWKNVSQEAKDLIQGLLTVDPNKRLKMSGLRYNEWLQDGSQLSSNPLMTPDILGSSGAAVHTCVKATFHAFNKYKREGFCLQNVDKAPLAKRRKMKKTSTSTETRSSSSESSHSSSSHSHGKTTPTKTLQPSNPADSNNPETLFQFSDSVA
UniProt Q9H3Y6, sequence (whole entry, looked up): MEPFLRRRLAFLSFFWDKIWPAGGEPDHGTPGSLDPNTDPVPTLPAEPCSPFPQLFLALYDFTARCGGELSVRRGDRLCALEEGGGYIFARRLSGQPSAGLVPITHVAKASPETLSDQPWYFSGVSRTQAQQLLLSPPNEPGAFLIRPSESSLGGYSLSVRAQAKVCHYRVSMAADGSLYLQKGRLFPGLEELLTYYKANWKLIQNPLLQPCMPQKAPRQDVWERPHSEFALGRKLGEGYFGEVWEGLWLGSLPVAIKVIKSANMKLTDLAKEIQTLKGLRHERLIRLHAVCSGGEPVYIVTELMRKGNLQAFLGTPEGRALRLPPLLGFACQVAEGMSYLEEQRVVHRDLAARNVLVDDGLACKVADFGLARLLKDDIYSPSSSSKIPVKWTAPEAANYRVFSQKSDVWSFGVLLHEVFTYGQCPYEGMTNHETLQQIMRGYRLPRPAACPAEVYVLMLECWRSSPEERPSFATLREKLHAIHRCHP
UniProt Q9UEE5, sequence (whole entry, looked up): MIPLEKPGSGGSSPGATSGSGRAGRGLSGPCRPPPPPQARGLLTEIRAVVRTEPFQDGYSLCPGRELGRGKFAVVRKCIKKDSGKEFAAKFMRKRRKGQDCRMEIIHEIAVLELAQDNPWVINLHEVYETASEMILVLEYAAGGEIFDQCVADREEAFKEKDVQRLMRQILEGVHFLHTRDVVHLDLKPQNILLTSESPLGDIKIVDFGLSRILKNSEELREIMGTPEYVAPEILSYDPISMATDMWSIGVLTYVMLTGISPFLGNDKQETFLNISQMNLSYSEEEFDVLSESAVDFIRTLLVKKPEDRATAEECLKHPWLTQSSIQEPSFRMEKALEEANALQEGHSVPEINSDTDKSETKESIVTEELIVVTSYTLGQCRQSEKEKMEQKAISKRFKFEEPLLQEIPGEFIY

Sample 1
Target: Phosphate system positive regulatory protein PHO4, full length, GST-tagged (PHO4, Saccharomyces cerevisiae, UniProt P07270, residues 1-312)
Method: competition protein-binding microarray
Form: double-stranded DNA, one strand shown
Matrix: in vitro
Tested at: 2 µM
Setting: whole 60-bp probe, lowest competitor level
Together with: Cbf1 competitor, 0.05 µM
Reading: higher = stronger binding
Quantity: fluorescence intensity
Constant ends, left off below: … GTCTTGATTCGCTTGACGCTGCTG
Target sequence (chain): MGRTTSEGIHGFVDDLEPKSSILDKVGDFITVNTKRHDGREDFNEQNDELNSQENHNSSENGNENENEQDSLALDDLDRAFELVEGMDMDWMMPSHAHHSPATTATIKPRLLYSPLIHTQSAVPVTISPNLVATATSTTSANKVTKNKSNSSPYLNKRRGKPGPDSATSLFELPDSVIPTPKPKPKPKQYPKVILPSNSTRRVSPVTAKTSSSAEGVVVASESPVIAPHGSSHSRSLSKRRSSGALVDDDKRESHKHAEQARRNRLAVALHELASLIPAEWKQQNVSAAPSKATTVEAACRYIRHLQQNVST
AACCCCCAAAGTTGTCATGTTAAGGAGGGCATTTTT: 3470 a.u.
TCTAGGGATGAGCTGAACGTGCAAATGATACCAACC: 10700 a.u.
CCACCGCCGGATGCCTACGTGGTGAAGGGAGACAAA: 6710 a.u.
AGCGCCAATTGGTTACTCGTGAAGCTCAGATTAAAG: 4490 a.u.
TGATGATATAAGGTCCACGTGATGGCATTTCAATCT: 15700 a.u.
AAAGCGGTAATTTGACATGTGGGTGCAGATATCTAT: 12200 a.u.
GGATGTTTTCCAGATGTCGTGATGGTTTCACGAAGC: 5140 a.u.
TTCGAAAAGATTCACCACGTTTCCGTCGTTATCAGC: 10600 a.u.

Sample 2
Structure (SMILES): Cc1ccc(NC2=CC(=O)c3sc(C)nc3C2=O)cc1
Observed: enzyme activity
Mode: inhibitor
Tested at: 0.5 µM
Relative to: control
Quantity: remaining activity
Ribosomal protein S6 kinase alpha-5 (RPS6KA5, Homo sapiens, UniProt O75582): 87.7%
Cyclin-dependent kinase 6, with cyclin D3 (CDK6, Homo sapiens, UniProt Q00534): 99.6%
Tyrosine-protein kinase ABL1 (ABL1, Homo sapiens, UniProt P00519): 90.8%
Serine/threonine-protein kinase 17A (STK17A, Homo sapiens, UniProt Q9UEE5): 93.7%
MAP kinase-activated protein kinase 3 (MAPKAPK3, Homo sapiens, UniProt Q16644): 76.5%
Serine/threonine-protein kinase 16 (STK16, Homo sapiens, UniProt O75716): 91.7%
Tyrosine-protein kinase Srms (SRMS, Homo sapiens, UniProt Q9H3Y6): 82.4%
Calcium/calmodulin-dependent protein kinase type II subunit beta (CAMK2B, Homo sapiens, UniProt Q13554): 109%
Tyrosine-protein kinase receptor UFO (AXL, Homo sapiens, UniProt P30530): 97%
Homeodomain-interacting protein kinase 2 (HIPK2, Homo sapiens, UniProt Q9H2X6): 98.5%
Ribosomal protein S6 kinase alpha-6 (RPS6KA6, Homo sapiens, UniProt Q9UK32): 73.4%

Sample 3
Target: Histone acetyltransferase KAT6A, winged helix 2, GST fusion (KAT6A, Homo sapiens, UniProt Q92794, residues 85-181)
Method: protein binding microarray
Form: double-stranded DNA, one strand shown
Matrix: in vitro
Tested at: not given
Setting: 8-mer, flanks averaged, mean of 2 arrays, mostly near background
Relative to: not given
Reading: higher = stronger binding
Quantity: E-score
Target sequence (chain): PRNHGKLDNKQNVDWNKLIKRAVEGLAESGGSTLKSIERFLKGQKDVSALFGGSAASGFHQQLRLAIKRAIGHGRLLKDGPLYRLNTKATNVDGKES
AGTGTGAA: -0.0685
GCGAGTTA: 0.151
CCCAATGC: -0.221
ACACCGCA: 0.129
CTAACACC: -0.108
ATCCGACC: 0.0712
ATGAGCGA: 0.151
GCACCTGA: -0.00407

Sample 4
Structure (SMILES): CC(=O)N1CCC(c2ccc(C(=O)NC3=NCCN3)cc2C(F)(F)F)CC1
Observed: cell-free assay
Method: competition with immobilised ligand
Tested at: 1 µM
Quantity: remaining binding
NUAK family SNF1-like kinase 2 (NUAK2, Homo sapiens, UniProt Q9H093): 90%
Atypical kinase COQ8B, mitochondrial (COQ8B, Homo sapiens, UniProt Q96D53): 97%
Serine/threonine-protein kinase PAK 3 (PAK3, Homo sapiens, UniProt O75914): 100%

Excerpt of the above (sample 2):
Tyrosine-protein kinase ABL1 (ABL1, Homo sapiens, UniProt P00519): 90.8%
Serine/threonine-protein kinase 17A (STK17A, Homo sapiens, UniProt Q9UEE5): 93.7%
MAP kinase-activated protein kinase 3 (MAPKAPK3, Homo sapiens, UniProt Q16644): 76.5%
Serine/threonine-protein kinase 16 (STK16, Homo sapiens, UniProt O75716): 91.7%
